Measured values collected from several papers.
Lines come from different studies, so protocols differ. Values joined by “and” are separate records of one study, mostly repeats; a detail may differ. ± marks the error that the study gave.
Cell line: HeLa

| SMILES | assay | conditions | quantity | value |
| --- | --- | --- | --- | --- |
| C#CCCCC[C@H](C)C[C@@H](C)C(=O)N[C@@H](C)C(=O)N1CCC[C@H]1C(=O)N[C@H](C(=O)N[C@H](C(=O)N[C@H](C(=O)N[C@@H](Cc1ccccc1)C(=O)N1CCC[C@H]1C(=O)N1CCC[C@H]1C(C)=O)C(C)C)C(C)C)C(C)C | cell growth or viability, SRB | – | IC50 | 41.3 µM and 38 µM and 37 µM |
| CC[C@H](C)[C@@H]([C@@H](CC(=O)N1CCC[C@H]1[C@H](OC)[C@@H](C)C(=O)N[C@H](C)[C@@H](O)c1ccccc1)OC)N(C)C(=O)[C@@H](NC(=O)[C@@H](NC)C(C)C)C(C)C | cell proliferation, MTT | without transthyretin | IC50 | 0.0013 µM |
| Cc1ccc2c(Cl)cc(Cl)c([O-])c2n1.Cc1ccc2c(Cl)cc(Cl)c([O-])c2n1.[Co+2].c1cnc2c(c1)c1nccnc1c1cccnc12 | cell growth or viability, MTT | 48 h | IC50 | 0.1 µM |
| Cc1cc(Oc2nc(N3CC[C@@H](c4ccncc4)C3)ncc2F)[nH]n1 | cell proliferation | – | IC50 | > 100 µM |
| COC(=O)[C@@H](NC(=O)[C@@H](NC(=O)[C@@H](NC(=O)[C@@H]1CCCN1C(=O)[C@H](C)NC(=O)OC(C)(C)C)C(C)C)C(C)C)C(C)C | cell growth or viability, SRB | – | IC50 | 3.29 µM and 4.21 µM and 3.97 µM |
| Cc1c(Cl)c(=O)oc2cc(OCCCCCC[Se]C#N)ccc12 | cell growth or viability, SRB | – | GI50 | 9.8 µM |
| CC(N)C(O)CCCCCCCCCCCCCCC(=O)CCCCCCCC(O)C(C)N (stereo not shown) | cytotoxicity | concentration not given | growth inhibition | 16% |
| CNC(=S)NCCCC[C@H](NC(=O)CCc1ccccc1)C(=O)N[C@@H](CCCNC(=N)N)C(=O)N[C@@H](CC1CCCCC1)C(=O)N[C@H](CCCCN)C(=O)N[C@@H](CC1CCCCC1)C(N)=O | cell growth or viability, MTT | 72 h | EC50 | 48.7 µM |
| COC1CN([C@H]2CC[C@H]([C@@H](C)n3c(C)c(C(=O)NCc4c(SC)cc(C)[nH]c4=O)c4ccccc43)CC2)C1 | histone methylation reduction, AlphaLISA, refers to: H3K27me3 | 72 h | EC50 | 0.002 µM |
| C[C@H](N)[C@@H](CCCCCCCCCCCCCCC(=O)CCCCCCC[C@@H](O)[C@@H](C)N)O[C@@H]1O[C@H](CO)[C@H](O)[C@H](O)[C@H]1O | cytotoxicity | concentration not given | growth inhibition | 99 ± 0.05% |
| CC(C)=CCc1c(O)cc2c(c1O)C(=O)CC(c1ccc(O)cc1)O2 (stereo not shown) | cell growth or viability, MTT | 0.781 µM, 48 h | inhibition | 1.37% |
| C[C@@H](N)[C@H](O)CCCCCCCC(=O)CCCCCCCCCCCCCC[C@@H](O[C@@H]1O[C@H](CO)[C@H](O)[C@H](O)[C@H]1O)[C@H](N)CO | cytotoxicity | concentration not given | growth inhibition | 99 ± 0.05% |
| CC(=O)N[C@H]1CSCC(c2nnc(-c3ccccc3)nn2)CSC[C@@H](C(N)=O)NC(=O)[C@@H](Cc2ccccc2)NC(=O)[C@H](CC(=O)O)NC(=O)CNC(=O)[C@H](CCCNC(=N)N)NC1=O (stereo partly shown) | cell growth or viability, CCK-8 | 72 h | IC50 | > 10 µM |
